Experimental data pooled from the literature.
Several values in a cell are separate wells, animals, samples, runs or records. ± gives the spread as reported.

COc1cccc(CNC[C@@](O)(COCc2ccccc2)[C@@H]2CC[C@@H](C)C[C@H]2OCc2ccccc2)c1 has an inhibition of 80.3% (HeLa; cell growth or viability, MTT; 10 µM, 72 h).
COC1CCN(C(=O)/C=C/c2nn(Cc3cccc(C(F)(F)F)c3)c3nc(N)ncc23)CC1 has an EC50 of 1760 nM (OE33; cell growth or viability, resazurin; 5 days).
The internalized fraction of N#C[C@@H]1CC(F)(F)CN1C(=O)CNC(=O)c1ccnc2ccc(OCCCN3CCN(C(=O)CCc4ccc(O)c(CN5CCN6CC(=O)[O][Al-]([18F])([O]C(=O)C5)[O]c5ccc(CCC(=O)N7CCN(CCCOc8ccc9nccc(C(=O)NCC(=O)N%10CC(F)(F)C[C@H]%10C#N)c9c8)CC7)cc5C6)c4)CC3)cc12 (stereo partly shown) is reported as 81.3 ± 2.6% (HT1080 cells expressing human FAP; 120 min, 37 °C).
The inhibition of CC12CCCC(n3cc(C(=O)N4CCC(N)CC4)nn3)(C1)C1CC(C)(C)C1CC2 (stereo not shown) is reported as 83.7% (HT-29; cell growth or viability, CCK-8; 50 µM).
For CC(C)c1ccc(N(C)c2ccc3c(c2)OCC[C@H]3CNc2cnccc2C(=O)O)cc1, the IC50 was 140 nM (SK-MEL-2; cell viability, CellTiter-Glo; 7 days).
With O=C(CNC(=O)c1ccc(Cl)c(C(F)(F)F)c1)Nc1ccc2[nH]nc(/C=C/c3ccccn3)c2c1 the GI50 was > 10000 nM (BaF3; cell growth or viability, CCK-8).
O=C(C[Se]C(=O)c1ccccc1Nc1ccccc1)Nc1cccc(C(F)(F)F)c1 — result for “mean growth percent”: -81.6% (NCI60 leukemia subpanel; cell growth; 10 µM, 48 h, one-dose).
For Cc1cc(Cl)cc(-c2ccnc3cc(CN4C(=O)C5C(C4=O)C5(C)C)sc23)c1C[C@@H]1CNCCO1 (stereo partly shown), “cells in G1 phase” read 72.9% and 69.3% and 75.9% (CHP-212 resistant cells (pooled); PI flow cytometry; 0.3 µM, 24 h).
With N#C[C@@H]1CCCN1C(=O)CNC(=O)c1ccnc2ccc(OCCCN3CCN(C(=O)CCc4ccc5c(c4)CN4CCN6CC(=O)[O][68Ga-]([O]C(=O)C4)([O]5)[O]c4ccc(CCC(=O)N5CCN(CCCOc7ccc8nccc(C(=O)NCC(=O)N9CCC[C@H]9C#N)c8c7)CC5)cc4C6)CC3)cc12 the internalized fraction was 81.7 ± 1.7% (HT1080 cells expressing human FAP; 90 min, 37 °C).
With CCC(=CCc1c(O)cc2c(c1O)C(=O)CC(c1cccc(OC)c1O)O2)CC (stereo not shown) the inhibition was 0.219% (HeLa; cell growth or viability, MTT; 3.125 µM, 48 h).
Cn1ncc2cc(-c3cncc(Cl)c3N3CCC4(CCNC4=O)CC3)ccc21 — result for “log2 fold change”: -1.12 (LS174T; gene expression, microarray, refers to: DUSP6 mRNA; concentration not given, 4 h; relative to: untreated cells).
Under “log2 fold change”, Cc1ncsc1-c1ccc(C(C)NC(=O)C2CC(O)CN2C(=O)C(NC(=O)CCCCCCCCCCN2CCCC(Nc3ncc(Cl)c(Nc4ccccc4S(=O)(=O)C(C)C)n3)C2)C(C)(C)C)cc1 (stereo not shown) is recorded as -1.74 (22Rv1; RNA-seq, refers to: ZNF470 mRNA; concentration not given; relative to: DMSO).
Cc1cc(C)c2c(Cn3ccnc3)cc(=O)oc2c1: “calcium mobilisation signal” 1.09 ± 2.05 (COS-7 (untransfected); 500 µM, unit not given; relative to: 3 µM ionomycin).
Under phosphorylation level, O=S(=O)(N[C@H]1CCO[C@@H](C2c3ccccc3CCc3ccccc32)C1)c1ccc(OC(F)(F)F)cc1 is recorded as “decreased” (D425; immunoblot, refers to: AKT; concentration not given).
For CSC(=NN=C(C)c1ccc(S(=O)(=O)N2CCC(C)CC2)cc1)N(C)C, “total apoptotic cells” read 16.2% (MCF7; annexin V/PI; concentration not given, 72 h, at IC50).
With CC12CCCC(NS(=O)(=O)c3cccc(F)c3)(C1)C1CC(C)(C)C1CC2 (stereo not shown) the inhibition was < 50% (HT-29; cell growth or viability, CCK-8; 10 µM).
For C[C@@H]1CC[C@@H]([C@](O)(COCc2ccccc2)Cn2cnc3ccccc32)[C@H](OCc2ccccc2)C1, the inhibition was 95.4% (HeLa; cell growth or viability, MTT; 30 µM, 72 h).
CC(C)C[C@@H](NC(=O)[C@H](C)NC(=O)CNC(=O)[C@@H](NC=O)C(C)C)C(=O)N[C@@H](C)C(=O)N[C@@H](C(=O)N[C@H](C(=O)N[C@@H](C(=O)N[C@@H](Cc1c[nH]c2ccccc12)C(=O)N[C@H](CC(C)C)C(=O)N[C@@H](Cc1c[nH]c2ccccc12)C(=O)N[C@H](CC(C)C)C(=O)N[C@@H](Cc1c[nH]c2ccccc12)C(=O)N[C@H](CC(C)C)C(=O)N[C@@H](Cc1c[nH]c2ccccc12)C(=O)NCCO)C(C)C)C(C)C)C(C)C — result for “cells in G1 phase”: 65.4 ± 0.79% (MCF7; flow cytometry; 500 nM, 48 h).
For CC12CCCC(NC(=O)c3ccc(Br)cc3)(C1)C1CC(C)(C)C1CC2 (stereo not shown), the inhibition was 66.3% (HT-29; cell growth or viability, CCK-8; 300 µM).
With CCN(C(=O)c1cc(F)ccc1Oc1nncnc1N1CCC2(C1)CN([C@H](CCCN(C)CCOC)C(C)C)C2)C(C)C the GI50 was > 10000 nM (MINO; cell growth or viability; 7 days).
CC(=O)N[C@@H](CC(=O)O)C(=O)N[C@@H](CCCC(=O)O)C(=O)N[C@@H](CC(C)C)C(=O)N[C@@H](CC(=O)O)C(=O)COC(=O)c1c(C)cccc1C gave a cell lysis of 43.1% and 32% (THP-1 cells, LPS-primed; pyroptosis, LDH release; 25 µM, LPS 1 µg/mL, 4 h, with: nigericin 5 µM, 2 h).
CCC(=CCc1c(O)cc2c(c1O)C(=O)CC(c1cc(OC)ccc1O)O2)CC (stereo not shown) gave an inhibition of 10.4% (HeLa; cell growth or viability, MTT; 6.25 µM, 48 h).
CC(=O)N[C@@H](CC(=O)O)C(=O)N[C@@H](CCC(=O)O)C(=O)N[C@H](C(=O)N[C@@H](CC(=O)O)C(=O)COC(=O)c1c(C)cccc1C)C(C)C gave a cell lysis of 32.6% and 33.7% (THP-1 cells, LPS-primed; pyroptosis, LDH release; 25 µM, LPS 1 µg/mL, 4 h, with: nigericin 5 µM, 2 h).
For CCC(CC)n1c(Cc2cccs2)nc2cc(C(=O)N[C@@H](CC(=O)O)c3ccccc3)ccc21, mRNA level read “decreased” (3T3 fibroblasts; refers to: α-SMA, Fn1, Col1α2, Timp1; concentration not given, 48 h, with: MCM).
CC12CCCC(NC(=O)c3ccc(F)cc3F)(C1)C1CC(C)(C)C1CC2 (stereo not shown) has an inhibition of < 50% (HT-29; cell growth or viability, CCK-8; 10 µM).
Under “I2PP2A protein level”, O=S(=O)(N[C@H]1CCO[C@@H](C2c3ccc(F)cc3CCc3cc(F)ccc32)C1)c1ccc(OC(F)(F)F)cc1 is recorded as “increased” (D425; immunoblot; concentration not given).
C[C@@H]1CC[C@@H]([C@@](O)(CNCc2ccc(F)cc2)COCc2ccccc2)[C@H](OCc2ccccc2)C1 has an inhibition of 93.4% (A2780; cell growth or viability, MTT; 10 µM, 72 h).
C=CCc1c(O)cc2c(c1O)C(=O)CC(c1ccc(O)cc1)O2 (stereo not shown) gave an inhibition of 2.1% (HeLa; cell growth or viability, MTT; 1.563 µM, 48 h).
CN1CCCNC(=O)c2cccc(c2)C(=O)NCCCN(C)CCCNc2cccc3c2C(=O)c2cccc(c2C3=O)NCCC1: “log2 fold change” 1.1 (SAS; RNA-Seq, refers to: COQ5 mRNA; 1 µM, 6 h; relative to: untreated cells).
Under “calcium mobilisation signal”, Nc1c(NCO)c2ccccc2oc1=O is recorded as 0.05 ± 0.95 (COS-7 (untransfected); 500 µM, unit not given; relative to: 3 µM ionomycin).
With CC(=O)N[C@@H](CC(=O)O)C(=O)N[C@@H](CCC(=O)O)C(=O)N[C@@H](CC(C)C)C(=O)N[C@@H](CC(=O)O)C(=O)COC(=O)c1c(C)cccc1C the cell lysis was 73.1% and 66.6% (THP-1 cells, LPS-primed; pyroptosis, LDH release; 25 µM, LPS 1 µg/mL, 4 h, with: nigericin 5 µM, 2 h).
For CCC(=CCc1c(O)cc2c(c1O)C(=O)CC(c1c(O)cccc1OC)O2)CC (stereo not shown), the inhibition was 24.8% (HeLa; cell growth or viability, MTT; 25 µM, 48 h).
Cc1nc2ccc(Br)cc2c(=O)n1N gave a viability of 62.9% (LoVo; cell growth or viability, LDH; 200 µg/mL, 24 h).
For O=S(=O)(Nc1ccc(OC(F)(F)F)cc1)N1CCCC(C2c3ccccc3CCc3ccccc32)C1 (stereo not shown), phosphorylation level read “decreased” (D425; immunoblot, refers to: AKT; concentration not given).
The growth inhibition of CCC(=CCc1c(O)cc2c(c1O)C(=O)CC(c1ccc(OC)c(O)c1)O2)CC (stereo not shown) is reported as 68.9% (MCF7; cytotoxicity, MTT; 25.1 µM, 48 h).
CCc1c(-c2ccc3[nH]ncc3c2)cnc(N)c1-c1ccc(O)cc1 has a viability of 108% (CHP-212 resistant sublines, USP7 V517F heterozygous; 0.1953 µM).
CCN(CC)CC(=O)Nc1cccc(-n2cc(-c3ccc4ccc(-c5cn(-c6cccc(NC(=O)CN(CC)CC)c6)nn5)cc4c3)nn2)c1 gave a fold regulation of -1.34 (RCC4; PCR angiogenesis array, refers to: HPSE; 5 x IC50, 6 h, normoxia; relative to: untreated).
For CNS(=O)(=O)Nc1nccc(Cc2c(C)c3ccc(Oc4ncccc4F)cc3oc2=O)c1F, the IC50 was 91.1 nM (CW-2; cell viability; 7 days).
With O=C(N1CCCC1)n1cc(-c2ccc(-c3ccccc3)cc2)nn1 the SILAC ratio was 1 (mouse T cells; N-terminal labelling proteomics, refers to: TPI1 N-terminal peptides; 0.001 µM, 6 h; relative to: DMSO).
With CCC(=CCc1c(O)cc2c(c1O)C(=O)CC(c1ccc(OC)cc1O)O2)CC (stereo not shown) the inhibition was 4.28% (HeLa; cell growth or viability, MTT; 0.781 µM, 48 h).
CC(C)(C)c1ccc([C@H](O)C[C@H](CO)NC(=O)CCCCCOc2ccc3ccccc3c2)cc1 gave a lactosylceramide level of 12000 pmol/sample and 22700 pmol/sample and 21300 pmol/sample (HeLa; CERT activity, HPLC-MS/MS lipidomics, refers to: lactosylceramide 16; 1 µM, 24 h, not cell-number normalised).
The inhibition of COC(=O)c1ccc(S(=O)(=O)NC23CCCC(C)(CCC4C2CC4(C)C)C3)cc1 (stereo not shown) is reported as 48.3% (HT-29; cell growth or viability, CCK-8; 50 µM).
For O=C1CCCC2=C1C(c1c[nH]c3ccccc13)c1cc(Br)ccc1O2 (stereo not shown), “mean lipid content” read 0.665 OD492 (3T3-L1 mature adipocytes; lipolysis, Oil Red O staining; IC20).
